Published values collected from several papers.
Lines come from different studies, so protocols differ.

CCCC[C@H](NC(=O)[C@H](CCC(=O)O)NC(=O)CNC(=O)CN1CCN(CC(=O)O)CCN(CC(=O)O)CCN(CC(=O)O)CC1)C(=O)N[C@H]1CC(=O)NCCCC[C@@H](C(N)=O)NC(=O)[C@H](Cc2c[nH]c3ccccc23)NC(=O)[C@H](CCCNC(=N)N)NC(=O)[C@@H](Cc2ccccc2)NC(=O)[C@H](Cc2c[nH]cn2)NC1=O [indium-111 labelled]: serum stability “stable” (RP-HPLC; mouse serum; 24 h, 37 °C).
Under serum stability, CC(C)[C@H](NC(=O)[C@@H]1CCCN1C(=O)[C@H](CCCNC(=N)N)NC(=O)[C@H](CS)NC(=O)[C@H](Cc1c[nH]c2ccccc12)NC(=O)[C@H](CCCNC(=N)N)NC(=O)[C@@H](Cc1ccccc1)NC(=O)[C@H](Cc1c[nH]cn1)NC(=O)[C@H](CCC(=O)O)NC(=O)[C@H](CS)NC(=O)[C@H](CS)NC(=O)CNC(=O)[C@@H]1CC(=O)N[C@@H](CCCNC(=N)N)C(=O)NCC(=O)N[C@@H](CC(=O)O)C(=O)N[C@H](Cc2ccc(O)cc2)C(=O)N1)C(N)=O [technetium-99m labelled] is recorded as “stable” (RP-HPLC; mouse serum; 24 h, 37 °C).
Under serum stability, CCCC[C@H](NC(=O)CNC(=O)CNC(=O)CN1CCN(CC(=O)O)CCN(CC(=O)O)CCN(CC(=O)O)CC1)C(=O)N[C@H]1CC(=O)NCCCC[C@@H](C(N)=O)NC(=O)[C@H](Cc2c[nH]c3ccccc23)NC(=O)[C@H](CCCNC(=N)N)NC(=O)[C@@H](Cc2ccccc2)NC(=O)[C@H](Cc2c[nH]cn2)NC1=O [lead-203 labelled] is recorded as “stable” (radio-HPLC; mouse serum; 4 h, 37 °C).
For CCCC[C@@H]1NC(=O)[C@@H](NC(=O)[C@H](CCC(=O)O)NC(=O)CNC(=O)CN2CCN(CC(=O)O)CCN(CC(=O)O)CCN(CC(=O)O)CC2)CCCCNC(=O)C[C@@H](C(N)=O)NC(=O)[C@H](C(C)C)NC(=O)[C@@H]2CCCN2C(=O)[C@H](CCCNC(=N)N)NC(=O)CNC(=O)[C@H](Cc2c[nH]c3ccccc23)NC(=O)[C@H](CCCNC(=N)N)NC(=O)[C@@H](Cc2ccccc2)NC(=O)[C@H](Cc2c[nH]cn2)NC(=O)[C@H](CCC(=O)O)NC1=O [gallium-67 labelled], serum stability read “stable” (RP-HPLC; mouse serum; 24 h, 37 °C).
Under “serum stability time”, CC(C)[C@H](NC(=O)CNC(=O)[C@H](Cc1c[nH]c2ccccc12)NC(=O)[C@@H]1CCCN1C(=O)[C@H](CC(=O)O)NC(=O)[C@H](CCC(N)=O)NC(=O)[C@H](CCC(=O)O)NC(=O)[C@@H](N)Cc1ccc(O)cc1)C(=O)N[C@@H](CCCCN)C(=O)N[C@@H](Cc1c[nH]c2ccccc12)C(=O)N[C@@H](Cc1c[nH]c2ccccc12)C(=O)N[C@@H](Cc1ccc(O)cc1)C(=O)NCC(=O)NCC(=O)NCC(=O)N[C@@H](CO)C(=O)N[C@@H](CCCCN)C(=O)N[C@@H](CCCCN)C(=O)N[C@@H](CCCCNC(=O)CCCC[C@@H]1SC[C@@H]2NC(=O)N[C@@H]21)C(N)=O is recorded as at most 4 h (MALDI-TOF MS; normal mouse serum; 37 °C, until peptide no longer detected).
CCCC[C@H](NC(=O)[C@H](CCCNC(=N)N)NC(=O)[C@H](Cc1c[nH]c2ccccc12)NC(=O)[C@H](CSSC[C@H](NC(=O)[C@@H]1CCCN1C(=O)[C@H](CC(N)=O)NC(=O)[C@@H](N)[C@@H](C)CC)C(=O)N[C@@H](Cc1c[nH]c2ccccc12)C(=O)N[C@@H](CCCNC(=N)N)C(=O)N[C@@H](CCCC)C(=O)N[C@@H](CCCNC(=N)N)C(=O)N[C@@H](Cc1ccc(O)cc1)C(N)=O)NC(=O)[C@@H]1CCCN1C(=O)[C@H](CCCCNC(=O)CN1CCN(CC(=O)O)CCN(CC(=O)O)CCN(CC(=O)O)CC1)NC(=O)[C@@H](N)[C@@H](C)CC)C(=O)N[C@@H](CCCNC(=N)N)C(=O)N[C@@H](Cc1ccc(O)cc1)C(N)=O [gallium-68 labelled]: “serum protein binding” about 30% (human serum).
For CC(C)[C@@H]1NC(=O)CNC(=O)[C@H](Cc2c[nH]c3ccccc23)NC(=O)[C@@H]2CCCN2C(=O)[C@H](CC(=O)O)NC(=O)[C@H](CCC(N)=O)NC(=O)[C@H](CCC(=O)O)NC(=O)[C@H](Cc2ccc(O)cc2)NC(=O)CNC(=O)[C@@H](N)CSSC[C@@H](C(=O)N[C@H](CCCCN)C(=O)N[C@H](CCCCN)C(=O)N[C@H](CCCCN)C(=O)N[C@@H](CCCCNC(=O)CCCC[C@@H]2SC[C@@H]3NC(=O)N[C@@H]32)C(N)=O)NC(=O)CNC(=O)[C@H](Cc2ccc(O)cc2)NC(=O)[C@H](Cc2c[nH]c3ccccc23)NC(=O)[C@H](Cc2ccc(O)cc2)NC(=O)[C@H](CCCNC(=N)N)NC1=O, “serum stability time” read over 48 h (MALDI-TOF MS; normal mouse serum; 37 °C, until peptide no longer detected).
Under serum stability, CCCC[C@H](NC(=O)CNC(=O)CNC(=O)CN1CCN(CC(=O)O)CCN(CC(=O)O)CC1)C(=O)N[C@H]1CC(=O)NCCCC[C@@H](C(N)=O)NC(=O)[C@H](Cc2c[nH]c3ccccc23)NC(=O)[C@H](CCCNC(=N)N)NC(=O)[C@@H](Cc2ccccc2)NC(=O)[C@H](Cc2c[nH]cn2)NC1=O [copper-64 labelled] is recorded as “stable” (RP-HPLC; mouse serum; 2 h, 37 °C).

Some of these lines once more:
Under serum stability, CC(C)[C@H](NC(=O)[C@@H]1CCCN1C(=O)[C@H](CCCNC(=N)N)NC(=O)[C@H](CS)NC(=O)[C@H](Cc1c[nH]c2ccccc12)NC(=O)[C@H](CCCNC(=N)N)NC(=O)[C@@H](Cc1ccccc1)NC(=O)[C@H](Cc1c[nH]cn1)NC(=O)[C@H](CCC(=O)O)NC(=O)[C@H](CS)NC(=O)[C@H](CS)NC(=O)CNC(=O)[C@@H]1CC(=O)N[C@@H](CCCNC(=N)N)C(=O)NCC(=O)N[C@@H](CC(=O)O)C(=O)N[C@H](Cc2ccc(O)cc2)C(=O)N1)C(N)=O [technetium-99m labelled] is recorded as “stable” (RP-HPLC; mouse serum; 24 h, 37 °C).
